Results pooled from the literature.
A part holds a random share of what one study measured. Substitutions count along the parent as printed.

Series 1 — technique: RNAcompete; molecule type: RNA; sample: in vitro; tested at: 20 nM; notes: 7-mer, probes averaged, single round; baseline: mean of 7-mers; direction: higher = stronger binding
Target: PABPC1L2, full length, GST fusion (mouse, UniProt A0ABA7IW68)
Construct (chain): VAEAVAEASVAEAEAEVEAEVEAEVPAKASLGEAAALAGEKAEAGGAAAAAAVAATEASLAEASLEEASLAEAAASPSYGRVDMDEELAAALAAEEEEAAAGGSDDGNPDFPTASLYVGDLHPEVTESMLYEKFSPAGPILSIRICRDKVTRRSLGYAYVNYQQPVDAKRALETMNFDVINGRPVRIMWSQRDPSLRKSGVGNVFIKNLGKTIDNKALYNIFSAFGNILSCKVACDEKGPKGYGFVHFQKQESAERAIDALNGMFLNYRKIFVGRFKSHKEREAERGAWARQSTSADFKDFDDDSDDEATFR
| Strand | 7-mer Z-score |
| --- | --- |
| UUACUGU | -0.246 |
| GCUGAGA | 0.0787 |
| ACGUCAU | -0.226 |
| GCCGAAA | 0.526 |
| GGGAUUG | 0.0787 |
| GGUCUAU | -0.188 |
| AGAAACC | 0.206 |
| GUCAUCA | -0.139 |
| AGAGCUG | -0.142 |
| GCUUCGC | -0.333 |
| GGAUACU | 0.0515 |
| UUGAAUG | -0.202 |
| UGCGGGC | 0.0823 |
| UCGAUUG | -0.34 |
| CUGAGCU | -0.18 |
| ACGUUUG | -0.472 |
| GGACCUU | -0.0138 |
| UGUUGUC | -0.454 |
| UAGUAUA | -0.0573 |
| GCGAUGG | 0.193 |
| UUAAAUG | 0.233 |

Series 2 — target: ATF7, bZIP domain (human); technique: DHFR protein complementation; sample: yeast; baseline: wild-type JUN-FOS pair; direction: higher = stronger binding
Notes: single substitutions, most at no-binding floor
Starting sequence: JUN, bZIP domain (human); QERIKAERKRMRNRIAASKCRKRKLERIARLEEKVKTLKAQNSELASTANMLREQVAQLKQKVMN; partner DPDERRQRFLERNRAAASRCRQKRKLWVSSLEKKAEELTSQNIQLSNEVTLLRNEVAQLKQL
| Variant | binding fitness |
| --- | --- |
| R30A | -0.539 natural log |
| I28R | -0.962 natural log |
| L59G | -1.44 natural log |
| N42L | -1.38 natural log |
| V35K | -1.57 natural log |
| A49W | -1.31 natural log |
| A46F | -1.13 natural log |
| E32K | -0.91 natural log |
| L52T | -1.5 natural log |
| M51K | -0.789 natural log |
| A49T | -1.33 natural log |
| N42Y | -1.19 natural log |
| S43H | -0.899 natural log |
| A29G | -1.15 natural log |
| E33A | -1.06 natural log |
| T48M | -0.904 natural log |
| A57L | -1.08 natural log |
| S43D | -0.698 natural log |
| K34N | -1.4 natural log |
| Q41C | -1.45 natural log |
| R53S | -1.29 natural log |
| A46P | -1.49 natural log |
| E54W | -1.28 natural log |
| T48H | -1.13 natural log |
| Q41K | -0.859 natural log |

Series 3 — target: CCNB2, cyclin fold, Cln2 fusion (human); technique: yeast growth competition, sequencing; sample: yeast; notes: strong parent motif; baseline: not given; direction: higher = stronger binding
Starting sequence: MICAL3 docking peptide (human); LQLRRQLSFSEDS
| Variant | normalised enrichment score |
| --- | --- |
| LQLKRQLSFSEDS [R4K] | 2.37 |
| LQLRRQLSFSELS [D12L] | 2.51 |
| LQLRRQLRFSEDS [S8R] | 1.32 |
| LFLRRQLSFSEDS [Q2F] | 2.21 |
| LQLRRQSSFSEDS [L7S] | -0.434 |
| LQLRRDLSFSEDS [Q6D] | 0.146 |
| LQLLRQLSFSEDS [R4L] | -0.0257 |
| LQLGRQLSFSEDS [R4G] | -0.0279 |
| LQLRRQLSFGEDS [S10G] | 3.18 |
| LQLRNQLSFSEDS [R5N] | 0.4 |
| LTLRRQLSFSEDS [Q2T] | 3.24 |
| LQFRRQLSFSEDS [L3F] | 0.811 |
| LQLRRQLSFTEDS [S10T] | 2.49 |
| LQLRRFLSFSEDS [Q6F] | 0.854 |
| LQLRPQLSFSEDS [R5P] | 0.113 |
| LQLRRQLSFMEDS [S10M] | 1.45 |
| LQGRRQLSFSEDS [L3G] | 0.0053 |
| LILRRQLSFSEDS [Q2I] | 2.68 |
| LQIRRQLSFSEDS [L3I] | 4.03 |
| LQHRRQLSFSEDS [L3H] | 0.267 |
| LQLRRQLSFNEDS [S10N] | 2.88 |
| LQLRRCLSFSEDS [Q6C] | 3.44 |
| LQLRRQLSESEDS [F9E] | 0.338 |
| LQLRRLLSFSEDS [Q6L] | 0.871 |
| LQLRRQLMFSEDS [S8M] | 1 |

Other studies, line by line
| Molecule | target | assay | system | conditions | how to read | endpoint | result |
| --- | --- | --- | --- | --- | --- | --- | --- |
| PhoQ, residues 284 288 289 292 302 303 TTCLQL | PhoP, residues 12 14 15 18 19 VHSCL (Escherichia coli, UniProt P23836) | Sort-seq, item: YFP reporter | E. coli | PhoQ-PhoP variant library, added: 10 µM Mg2+ | baseline: high Mg2+ state, higher = stronger signaling | fold induction | 5.99 |

Some of these lines once more (series 1):
| Strand | 7-mer Z-score |
| --- | --- |
| UGCGGGC | 0.0823 |
| GGUCUAU | -0.188 |
| GGACCUU | -0.0138 |
| UCGAUUG | -0.34 |
| ACGUCAU | -0.226 |
| UAGUAUA | -0.0573 |
| AGAAACC | 0.206 |
| GUCAUCA | -0.139 |
| GGGAUUG | 0.0787 |
| AGAGCUG | -0.142 |
| ACGUUUG | -0.472 |
| CUGAGCU | -0.18 |
